Measured values pooled from the literature.
Lines come from different studies, so protocols differ. “And” joins repeats or separate records; there may be more than shown. ± gives the spread as reported.
GSK3 short isoform: GSK3, short isoform (Trypanosoma brucei, UniProt Q388M1)
UniProt Q388M1, sequence (whole entry, looked up): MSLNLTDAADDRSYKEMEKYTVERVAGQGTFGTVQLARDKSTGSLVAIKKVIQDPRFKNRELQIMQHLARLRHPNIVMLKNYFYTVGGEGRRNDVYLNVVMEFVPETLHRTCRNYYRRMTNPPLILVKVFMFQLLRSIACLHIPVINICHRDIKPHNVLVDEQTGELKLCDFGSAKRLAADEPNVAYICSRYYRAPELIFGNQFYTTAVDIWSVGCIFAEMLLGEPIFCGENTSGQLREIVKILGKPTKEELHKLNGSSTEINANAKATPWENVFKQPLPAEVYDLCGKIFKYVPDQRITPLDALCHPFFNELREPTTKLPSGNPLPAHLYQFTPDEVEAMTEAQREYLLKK
Phenylalanine--tRNA ligase alpha subunit: Phenylalanine--tRNA ligase alpha subunit (Plasmodium falciparum, UniProt Q8I246)
ROP18: ROP18 (Toxoplasma gondii, UniProt Q2PAY2)
UniProt Q2PAY2, sequence (whole entry, looked up): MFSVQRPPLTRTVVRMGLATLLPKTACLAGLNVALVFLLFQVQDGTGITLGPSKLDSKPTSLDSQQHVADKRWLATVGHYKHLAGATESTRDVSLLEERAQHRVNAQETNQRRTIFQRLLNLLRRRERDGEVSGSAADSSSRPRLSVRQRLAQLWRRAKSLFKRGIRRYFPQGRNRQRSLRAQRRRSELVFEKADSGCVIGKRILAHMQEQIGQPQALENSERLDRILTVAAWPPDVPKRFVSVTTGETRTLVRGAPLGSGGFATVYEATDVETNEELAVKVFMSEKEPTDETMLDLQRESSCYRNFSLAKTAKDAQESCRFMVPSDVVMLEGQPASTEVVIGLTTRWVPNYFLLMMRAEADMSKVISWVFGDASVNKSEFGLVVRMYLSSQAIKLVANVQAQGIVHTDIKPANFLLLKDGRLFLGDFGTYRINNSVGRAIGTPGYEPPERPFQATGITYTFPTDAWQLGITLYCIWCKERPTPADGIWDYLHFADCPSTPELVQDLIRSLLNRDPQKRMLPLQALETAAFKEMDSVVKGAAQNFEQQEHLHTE
ACHE: Acetylcholinesterase (ACHE, Homo sapiens, UniProt P22303)
UniProt P81908, sequence (whole entry, looked up): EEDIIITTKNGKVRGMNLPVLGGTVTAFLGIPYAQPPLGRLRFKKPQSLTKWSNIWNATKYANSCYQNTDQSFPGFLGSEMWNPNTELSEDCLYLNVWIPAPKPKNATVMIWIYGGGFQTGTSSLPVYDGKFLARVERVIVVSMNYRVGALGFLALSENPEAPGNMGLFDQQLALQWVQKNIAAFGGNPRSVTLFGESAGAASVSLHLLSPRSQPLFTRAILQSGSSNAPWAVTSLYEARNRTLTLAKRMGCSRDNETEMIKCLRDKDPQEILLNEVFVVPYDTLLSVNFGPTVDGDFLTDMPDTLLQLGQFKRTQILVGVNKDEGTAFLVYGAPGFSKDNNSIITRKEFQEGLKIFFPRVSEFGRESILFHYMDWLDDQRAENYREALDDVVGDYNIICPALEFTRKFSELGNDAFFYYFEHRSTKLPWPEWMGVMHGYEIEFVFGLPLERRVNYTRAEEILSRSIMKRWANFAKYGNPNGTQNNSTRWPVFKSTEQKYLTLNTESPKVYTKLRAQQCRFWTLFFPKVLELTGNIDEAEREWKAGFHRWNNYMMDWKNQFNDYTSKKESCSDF
UniProt P22303, sequence (whole entry, looked up): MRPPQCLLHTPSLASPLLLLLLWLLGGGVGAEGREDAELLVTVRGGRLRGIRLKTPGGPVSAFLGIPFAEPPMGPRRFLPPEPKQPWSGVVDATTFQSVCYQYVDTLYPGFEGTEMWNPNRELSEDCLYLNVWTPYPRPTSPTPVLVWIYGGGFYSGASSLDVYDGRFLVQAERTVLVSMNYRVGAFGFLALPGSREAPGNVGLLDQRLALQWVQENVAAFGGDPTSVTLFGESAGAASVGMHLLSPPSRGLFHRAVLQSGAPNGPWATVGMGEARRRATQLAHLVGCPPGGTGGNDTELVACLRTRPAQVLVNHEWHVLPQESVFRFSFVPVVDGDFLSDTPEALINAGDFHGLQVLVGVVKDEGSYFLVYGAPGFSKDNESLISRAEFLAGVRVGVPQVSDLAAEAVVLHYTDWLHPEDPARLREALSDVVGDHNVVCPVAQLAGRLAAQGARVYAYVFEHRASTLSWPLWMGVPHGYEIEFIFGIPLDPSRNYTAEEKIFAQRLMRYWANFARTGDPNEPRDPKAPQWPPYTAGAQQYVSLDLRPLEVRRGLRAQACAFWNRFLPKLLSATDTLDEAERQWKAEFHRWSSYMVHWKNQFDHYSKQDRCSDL
UniProt Q12809, sequence (whole entry, looked up): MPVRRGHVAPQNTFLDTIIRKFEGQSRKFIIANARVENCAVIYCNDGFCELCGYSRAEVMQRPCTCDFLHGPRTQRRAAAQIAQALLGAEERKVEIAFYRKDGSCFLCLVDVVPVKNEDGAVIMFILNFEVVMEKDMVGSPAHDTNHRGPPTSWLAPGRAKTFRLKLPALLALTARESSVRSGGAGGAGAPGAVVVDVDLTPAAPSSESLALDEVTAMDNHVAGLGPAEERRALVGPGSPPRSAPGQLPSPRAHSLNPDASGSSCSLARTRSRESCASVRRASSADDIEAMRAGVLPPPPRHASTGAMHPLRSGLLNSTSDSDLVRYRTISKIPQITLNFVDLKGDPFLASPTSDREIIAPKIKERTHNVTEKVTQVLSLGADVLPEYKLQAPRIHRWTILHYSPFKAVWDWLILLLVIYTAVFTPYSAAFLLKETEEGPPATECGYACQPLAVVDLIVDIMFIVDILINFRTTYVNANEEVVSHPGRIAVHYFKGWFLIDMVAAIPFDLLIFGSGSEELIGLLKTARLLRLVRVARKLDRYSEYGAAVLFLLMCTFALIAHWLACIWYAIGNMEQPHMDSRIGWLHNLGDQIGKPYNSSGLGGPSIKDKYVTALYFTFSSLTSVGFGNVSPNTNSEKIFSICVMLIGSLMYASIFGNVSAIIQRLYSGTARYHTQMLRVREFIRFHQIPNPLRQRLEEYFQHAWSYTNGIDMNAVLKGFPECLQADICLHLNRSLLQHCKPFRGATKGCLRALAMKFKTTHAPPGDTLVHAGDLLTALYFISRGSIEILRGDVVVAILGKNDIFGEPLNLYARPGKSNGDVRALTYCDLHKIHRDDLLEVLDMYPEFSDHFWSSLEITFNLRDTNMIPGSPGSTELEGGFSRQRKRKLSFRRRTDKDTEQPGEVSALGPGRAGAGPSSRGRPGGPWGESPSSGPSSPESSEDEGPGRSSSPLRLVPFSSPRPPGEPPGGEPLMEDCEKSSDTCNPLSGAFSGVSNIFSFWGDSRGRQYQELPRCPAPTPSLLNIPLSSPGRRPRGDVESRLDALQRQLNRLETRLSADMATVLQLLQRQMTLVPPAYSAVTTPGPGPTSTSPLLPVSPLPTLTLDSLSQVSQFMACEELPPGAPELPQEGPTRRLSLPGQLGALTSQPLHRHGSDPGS
UniProt Q16678, sequence (whole entry, looked up): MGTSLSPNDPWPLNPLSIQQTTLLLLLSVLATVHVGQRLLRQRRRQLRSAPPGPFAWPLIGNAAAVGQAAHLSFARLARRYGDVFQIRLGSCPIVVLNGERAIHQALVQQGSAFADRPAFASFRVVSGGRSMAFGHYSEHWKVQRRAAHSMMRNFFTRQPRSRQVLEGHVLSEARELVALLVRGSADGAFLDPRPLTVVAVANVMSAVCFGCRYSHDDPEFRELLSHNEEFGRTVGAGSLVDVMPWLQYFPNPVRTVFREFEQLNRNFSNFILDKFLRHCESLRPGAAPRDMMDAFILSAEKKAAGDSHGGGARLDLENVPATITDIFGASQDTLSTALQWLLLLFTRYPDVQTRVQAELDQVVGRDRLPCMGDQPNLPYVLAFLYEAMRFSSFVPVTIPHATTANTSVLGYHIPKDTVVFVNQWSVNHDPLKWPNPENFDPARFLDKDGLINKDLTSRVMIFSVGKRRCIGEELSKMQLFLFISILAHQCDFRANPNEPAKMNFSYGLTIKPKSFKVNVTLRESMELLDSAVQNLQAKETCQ
UniProt P43681, sequence (whole entry, looked up): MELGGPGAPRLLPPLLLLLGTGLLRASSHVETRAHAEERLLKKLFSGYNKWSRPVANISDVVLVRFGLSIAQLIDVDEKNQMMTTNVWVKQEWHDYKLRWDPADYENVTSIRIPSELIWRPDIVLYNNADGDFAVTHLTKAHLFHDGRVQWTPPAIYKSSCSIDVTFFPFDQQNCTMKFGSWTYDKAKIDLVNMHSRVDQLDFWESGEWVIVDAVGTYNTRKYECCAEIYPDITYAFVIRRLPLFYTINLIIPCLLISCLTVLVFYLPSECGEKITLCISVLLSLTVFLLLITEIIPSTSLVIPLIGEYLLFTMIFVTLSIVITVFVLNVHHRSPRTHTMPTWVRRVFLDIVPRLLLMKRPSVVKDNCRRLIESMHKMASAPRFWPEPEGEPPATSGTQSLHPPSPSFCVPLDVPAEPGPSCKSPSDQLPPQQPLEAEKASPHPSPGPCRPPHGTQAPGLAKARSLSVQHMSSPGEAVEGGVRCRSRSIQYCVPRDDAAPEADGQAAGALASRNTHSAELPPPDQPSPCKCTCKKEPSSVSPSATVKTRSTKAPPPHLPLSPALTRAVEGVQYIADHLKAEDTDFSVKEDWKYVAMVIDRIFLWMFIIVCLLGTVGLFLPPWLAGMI
UniProt P39135, sequence (whole entry, looked up): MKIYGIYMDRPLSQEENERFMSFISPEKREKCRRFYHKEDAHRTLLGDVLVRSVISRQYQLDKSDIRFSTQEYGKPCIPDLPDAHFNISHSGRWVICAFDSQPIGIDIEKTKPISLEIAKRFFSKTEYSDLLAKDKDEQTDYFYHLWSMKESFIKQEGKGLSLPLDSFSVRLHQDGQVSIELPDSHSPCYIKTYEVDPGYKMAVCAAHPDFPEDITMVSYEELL
UniProt Q5XI64, sequence (whole entry, looked up): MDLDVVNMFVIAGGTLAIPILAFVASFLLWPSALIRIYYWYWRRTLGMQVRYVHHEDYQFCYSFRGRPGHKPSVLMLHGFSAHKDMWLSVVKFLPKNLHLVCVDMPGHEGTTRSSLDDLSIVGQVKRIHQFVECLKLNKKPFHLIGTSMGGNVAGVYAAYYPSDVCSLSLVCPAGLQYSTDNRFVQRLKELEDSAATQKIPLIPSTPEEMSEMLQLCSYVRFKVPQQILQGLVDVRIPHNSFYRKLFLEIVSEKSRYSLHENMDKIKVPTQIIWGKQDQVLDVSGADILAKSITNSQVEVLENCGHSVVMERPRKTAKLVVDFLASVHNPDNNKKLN

Substance	target	test	system	conditions	IC50
O=C1Nc2ccccc2/C1=C/c1cnc[nH]1	GSK3 short isoform	enzyme activity, inhibitor		90 min, 30 °C, added: ATP 2 µM	2.44 µM
CC(=O)Nc1ccc2ccn(-c3cc(NCC4COC4)n4ncc(C#N)c4n3)c2c1	CSNK2A2 (Homo sapiens, UniProt P19784)	target engagement in cells, BRET			0.2 µM
CCN1C[C@H](C)n2c(c(O)c3c(=O)n(Cc4ccc(F)c(Cl)c4)nc(C(=O)NC)c32)C1=O	Gag-Pol polyprotein, integrase (gag-pol, Human immunodeficiency virus 1, UniProt P12497)	concerted integration, inhibitor, item: donor-donor products		2 h, 37 °C	0.021 ± 0.003 µM
C=CCN=C=S	MIF (Homo sapiens, UniProt P14174)	enzyme activity, inhibitor		with preincubation	3.69 µM
CC1=C(C(=O)NC(=O)c2cnccn2)C(c2ccccc2)NC(=O)N1 (stereo not drawn)	Cholinesterase (BCHE, Equus caballus, UniProt P81908)				7.21 ± 0.01 µM
O=C(NCCCCCn1ccc2ccc(F)cc21)Oc1cccc(C(=O)O)c1	Cholinesterase (BCHE, Equus caballus, UniProt P81908)	enzyme activity, inhibitor, HPLC			5.8 µM
CCN1/C(=C/C(C)=O)Sc2ccc(OC)cc21	ERRα (human)	reporter gene, antagonist, luciferase reporter qHTS			11.9 µM
CC(C)(COP(=O)(O)OP(=O)(O)OC[C@H]1O[C@@H](n2cnc3c(N)ncnc32)[C@H](O)[C@@H]1OP(=O)(O)O)[C@@H](O)C(=O)NCCC(=O)NCCS	sfp (Bacillus subtilis, UniProt P39135)	phosphopantetheinylation, inhibitor, fluorescence polarization		45 min, pH 7.6, 10% DMSO, added: VibB 10 µM	7 µM
eburicol	Cybb/Cyba (Mus musculus, UniProt Q61093+Q61462)	ROS production	BV-2 cell lysate	added: NADPH 200 µM	> 50 µM
CC1=C(C(=O)NC(=O)c2cnccn2)C(c2ccncc2)NC(=S)N1 (stereo not drawn)	Cholinesterase (BCHE, Equus caballus, UniProt P81908)				3.46 µM and 3.4 µM
moenomycin	Transglycosylase (Staphylococcus aureus, UniProt Q9R744)	transglycosylase activity, inhibitor	RN4220	1 h, pH 7.0, 30 °C, 10% DMSO, added: [14C]-lipid II D-Ala-D-Lac 4 µM	0.19 ± 0.03 µM
CC(C)(O)/C=C/C(=O)[C@](C)(O)[C@H]1[C@H](O)C[C@@]2(C)[C@@H]3CC=C4[C@@H](C=C(O)C(=O)C4(C)C)[C@]3(C)C(=O)C[C@]12C	Androgen receptor (AR, Homo sapiens, UniProt P10275)	ligand displacement in cells, radioligand			0.256 µM
O=C(C[C@@H]1C/C=C/CCC(=O)O[C@H](c2ccccc2)CNC1=O)NCc1ccc(Cl)cc1	Sonic hedgehog protein, N-terminal signaling domain (Homo sapiens, UniProt Q15465)	inhibitor			no inhibition
Cn1c(=O)[nH]c2nncnc2c1=O	P4HB (Homo sapiens, UniProt P07237)	enzyme activity, inhibitor, absorbance			> 120 µM
O[C@H]1[C@H]2[C@H](O)CCCN2C[C@H]1O	Allium cepa α-mannosidase	enzyme activity, inhibitor		pH 4.0, 40 °C, added: 0.8 mM pNP-α-mannoside	0.2 µM
C=CC(C)(C)c1[nH]c2cc(Br)ccc2c1CCNC	Neuronal acetylcholine receptor; alpha4/beta2, (α4)3(β2)2 stoichiometry (Homo sapiens, UniProt P17787+P43681)	ion current, inhibitor, two-electrode voltage clamp	Xenopus oocytes	low-sensitivity α4β2 stoichiometry, added: 100 µM acetylcholine (EC75)	100 µM
Nc1ncnc2c1ncn2[C@@H]1O[C@H](COP(=O)(O)OP(=O)(O)C(Cl)(Cl)P(=O)(O)O)[C@@H](O)[C@H]1O	FRK (Homo sapiens, UniProt P42685)	enzyme activity, inhibitor, radiometric			0.11 µM
Cc1nc2ccccc2c2cc[nH]c12	human PDE4 from U-937 cells	enzyme activity, inhibitor		20 min, pH 7.5, 25 °C, added: [3H]cAMP 1.10 µM	> 100 µM
Nc1cccc(-c2cc3c(Oc4cccc(O)c4)ncnc3[nH]2)c1	GSK3 (Trypanosoma brucei, UniProt Q388M1)	enzyme activity, inhibitor		added: GSM peptide and ATP	0.6 ± 0.1 µM
CC(C)Cc1ccc(NC(=O)Oc2ccc3c(c2)[C@]2(C)CCN[C@@H]2N3)cc1	Cholinesterase (BCHE, Homo sapiens, UniProt P06276)	inhibitor		pH 8	0.00046 ± 3e-05 µM
Fc1cccc(-n2cnc3c(NCc4nc5c(F)c(F)ccc5[nH]4)nc(N4CCOCC4)nc32)c1	Cyclin-dependent kinase 6, with cyclin D3 (CDK6, Homo sapiens, UniProt Q00534)	enzyme activity, inhibitor			0.427 µM
O=C(COc1ccc(I)cc1)N[C@H]1CCOC1=O	rhlR (Pseudomonas aeruginosa, UniProt P54292)	reporter gene, antagonist	PAO-JP2 prhlI-LVAgfp	added: 30 µM BHL and 100 nM OdDHL	67.2 µM
CC(C)c1ccc2c(c1)c(SC(C)(C)C)c(CC(C)(C)C(=O)O)n2Cc1ccc(Cl)cc1	DNA polymerase Dpo1 exonuclease-deficient	primer extension, inhibitor	Saccharolobus solfataricus		59.8 ± 18.5 µM

Substance	target	test	system	conditions	IC50
O=C(NCCCCCn1ccc2ccc(F)cc21)Oc1cccnc1	Cholinesterase (BCHE, Equus caballus, UniProt P81908)	enzyme activity, inhibitor, HPLC			0.27 µM
COc1ccc(NC(=O)N2CCCCN3[C@H](COCCC(=O)O)[C@H](c4ccc(C#Cc5ccccc5)cc4)[C@@H]3C2)cc1	Phenylalanine--tRNA ligase alpha subunit	aminoacylation activity, inhibitor			0.029 µM
CCCCOC(=O)c1cccc(NC(=O)COc2ccc(Cl)cc2Cl)c1	MAPT (Homo sapiens, UniProt P10636, P618L)	amyloid aggregation, inhibitor, fluorescence			6.93 µM
CCCCCCCCCCCCC/C=C/[C@@H](O)[C@@H](N)COP(=O)(O)OCC[N+](C)(C)C	RYR1 (Oryctolagus cuniculus, UniProt P11716)	[3H]ryanodine binding, radioligand binding	skeletal SR vesicles	oxidizing, no calmodulin, added: 5 mM GSSG, 50 µM free Ca2+	25.5 ± 4 µM
CC#Cc1ccc2ccc3cccc4ccc1c2c34	Cytochrome P450 1B1 (CYP1B1, Homo sapiens, UniProt Q16678)	enzyme activity, inhibitor		5 s, pH 7.4	< 0.05 µM
CC(C)(O/N=C(\C(=O)N[C@@H]1C(=O)N2C(C(=O)[O-])=C(C[n+]3ccccc3)CS[C@H]12)c1csc(N)n1)C(=O)O	PA3047 (Pseudomonas aeruginosa, UniProt Q9HZG1)	binding, Bocillin FL competition	Pseudomonas aeruginosa 1771 membranes	PBP 4, added: Bocillin FL 100 µM	2.93 µM
Cc1cc(O)cc2c1O[C@](C)(CCC[C@H](C)CCC[C@H](C)CCCC(C)C)CC2	PTGS2 (Homo sapiens, UniProt P35354)	enzyme activity, inhibitor, ELISA			> 50 µM
CC(C)[C@H](CO)Nc1nc(Nc2cc(N)cc(Cl)c2)c2ncn(C(C)C)c2n1	EGFR (Homo sapiens, UniProt P00533)	kinase activity, ADP luminescence		added: 200 µM ATP	> 10 µM
COc1ccc(CNC(=O)Oc2cccc3c2OC(C)(C)C3)cc1	Neutral cholesterol ester hydrolase 1 (Mus musculus, UniProt Q8BLF1)	enzyme activity, inhibitor, competitive ABPP	mouse brain membrane proteome	added: FP-rhodamine probe	0.2 µM
Cc1cccc(Nc2nc(NC3CCCCC3N)ncc2C(N)=O)c1 (stereo not drawn)	ROP18	enzyme activity, inhibitor			2.98 µM
CN[C@H]1C(=O)N[C@@H]2Cc3ccc(cc3)Oc3cc4cc(c3O[C@@H]3O[C@H](C(=O)O)[C@@H](O)[C@H](O)[C@H]3NC(=O)CCCCCCCCC(C)C)Oc3ccc(cc3Cl)[C@@H](O)[C@@H]3NC(=O)[C@H](NC(=O)[C@@H]4NC(=O)[C@@H](NC2=O)c2cc(cc(O)c2Cl)Oc2cc1ccc2O)c1ccc(O)c(c1)-c1c(O[C@H]2O[C@H](CO)[C@@H](O)[C@H](O)[C@@H]2O)cc(O)cc1[C@@H](C(=O)NCCCN(C)C)NC3=O	CRISPR-associated endonuclease Cas9/Csn1 (cas9, Streptococcus pyogenes serotype M1, UniProt Q99ZW2)	genome editing, inhibitor, PCR genotyping	Escherichia coli, MG1655	Streptococcus pyogenes Cas9	6.25 to 12.5 µM
CN1C(=O)[C@]23SS[C@@]1(C)C(=O)N2[C@H]1Nc2ccccc2[C@@]1([C@@]12c4ccccc4N[C@@H]1N1C(=O)[C@@]4(C)SS[C@]1(C(=O)N4C)[C@H]2O)[C@@H]3O	KMT5A (Homo sapiens, UniProt Q9NQR1)	methyltransferase activity, inhibitor		added: 1 µM [3H]SAM	> 10 µM
C#C[C@]1(O)CC[C@H]2[C@@H]3CCC4=Cc5nc6nc7ccccc7n6cc5C[C@]4(C)[C@H]3CC[C@@]21C	ERRα (human)	reporter gene, antagonist, luciferase reporter qHTS			10.6 µM
O=S1(=O)CCc2ccc(Nc3nc(NC4CCNC4)nc4ccnc(O)c34)cc21 (stereo not drawn)	ROP18	enzyme activity, inhibitor			> 10 µM
COc1ccc(NC(=O)N2CCCCN3[C@H](CN4CCC4)[C@H](c4ccc(C#Cc5ccccc5)cc4)[C@@H]3C2)cc1	Phenylalanine--tRNA ligase alpha subunit	aminoacylation activity, inhibitor			0.162 µM
C[C@@H]1C[C@H]2[C@@H]3CCC4=CC(=O)C=C[C@]4(C)[C@@]3(Cl)[C@@H](O)C[C@]2(C)[C@@]1(OC(=O)c1ccco1)C(=O)CCl	ABCC1 (Homo sapiens, UniProt P33527)	substrate efflux, inhibitor, flow cytometry	ABCC1-overexpressing SupT1-Vin cells	added: BODIPY-FL-thapsigargin 100 nM	1 ± 0.7 µM
Cn1c2c(c(=O)c3ccccc31)CC(O)C(C)(C)O2 (stereo not drawn)	ACHE	enzyme activity, inhibitor			> 500 µM
O=C(/C=C/c1ccccc1)c1ccc(OCCNC2CCN(Cc3ccc(Cl)c(Cl)c3)CC2)cc1	ACHE	enzyme activity, inhibitor		pH 8	24.5 µM
[Ni+2]	Trpv1 (Rattus norvegicus, UniProt O35433)	transporter uptake, inhibitor, radiometric			62 µM
Nc1ccc2cc3ccccc3cc2c1	KCNH2 (Homo sapiens, UniProt Q12809)	thallium influx, inhibitor, confirmation	hERG-transduced cells		17 µM and 17.5 µM
O=C(Oc1ccc([N+](=O)[O-])cc1)N1CCC(C(O)(c2ccc3c(c2)OCO3)c2ccc3c(c2)OCO3)CC1	Monoacylglycerol lipase ABHD6 (Abhd6, Rattus norvegicus, UniProt Q5XI64)	competitive ABPP	rat brain membrane proteome		2.94 µM
COc1ccc(CNC(=O)Nc2ncc([N+](=O)[O-])s2)cc1	GSK3 short isoform	enzyme activity, inhibitor		90 min, 30 °C, added: ATP 2 µM	4.3 µM

Repeated from above:
Substance	target	test	system	conditions	IC50
CCN1C[C@H](C)n2c(c(O)c3c(=O)n(Cc4ccc(F)c(Cl)c4)nc(C(=O)NC)c32)C1=O	Gag-Pol polyprotein, integrase (gag-pol, Human immunodeficiency virus 1, UniProt P12497)	concerted integration, inhibitor, item: donor-donor products		2 h, 37 °C	0.021 ± 0.003 µM
C=CCN=C=S	MIF (Homo sapiens, UniProt P14174)	enzyme activity, inhibitor		with preincubation	3.69 µM
CC1=C(C(=O)NC(=O)c2cnccn2)C(c2ccccc2)NC(=O)N1 (stereo not drawn)	Cholinesterase (BCHE, Equus caballus, UniProt P81908)				7.21 ± 0.01 µM
O=C(NCCCCCn1ccc2ccc(F)cc21)Oc1cccc(C(=O)O)c1	Cholinesterase (BCHE, Equus caballus, UniProt P81908)	enzyme activity, inhibitor, HPLC			5.8 µM
CCN1/C(=C/C(C)=O)Sc2ccc(OC)cc21	ERRα (human)	reporter gene, antagonist, luciferase reporter qHTS			11.9 µM
CC(C)(COP(=O)(O)OP(=O)(O)OC[C@H]1O[C@@H](n2cnc3c(N)ncnc32)[C@H](O)[C@@H]1OP(=O)(O)O)[C@@H](O)C(=O)NCCC(=O)NCCS	sfp (Bacillus subtilis, UniProt P39135)	phosphopantetheinylation, inhibitor, fluorescence polarization		45 min, pH 7.6, 10% DMSO, added: VibB 10 µM	7 µM
eburicol	Cybb/Cyba (Mus musculus, UniProt Q61093+Q61462)	ROS production	BV-2 cell lysate	added: NADPH 200 µM	> 50 µM
